Results gathered from unrelated publications.
Values joined by “and” are separate records of one study, mostly repeats; a detail may differ. Numbers after ± are the reported error.

Compound	cell line	assay	setting	scale	measurement	value
CC(C)(C)C(=O)OCOP(=O)(OCOC(=O)C(C)(C)C)C1CCCN(O)C1=O (centres unmarked)	OVCAR-3				log GI50	-6.25 log M
CC(C)[C@H](NC(=O)[C@H](CCCNC(=N)N)NC(=O)[C@@H]1CCCN1C(=O)[C@@H](NC(=O)[C@H](C)NC(=O)[C@H](Cc1ccc(O)cc1)NC(=O)[C@H](CCC(N)=O)NC(=O)[C@H](CCCCN)NC(=O)[C@H](CCCNC(=N)N)NC(=O)[C@@H]1CCCN1C(=O)[C@H](CCC(=O)O)NC(=O)[C@@H](NC(=O)[C@H](C)N)[C@@H](C)O)[C@@H](C)O)C(=O)N[C@@H](Cc1ccccc1)C(=O)N[C@@H](Cc1c[nH]c2ccccc12)C(=O)N[C@H](C(=O)N[C@@H](CC(=O)O)C(=O)N[C@@H](C)C(=O)N1CCC[C@H]1C(=O)NCC(=O)NCCOCCOCCOCCOCCOCCOCCOCCOCCOCCOCCOCCOCCC(=O)N[C@@H](CS)C(N)=O)[C@@H](C)O	PC-9	phage binding		relative to: targeting over control phage	selectivity ratio	2.5 ± 1.2
CC(C)C12OC1C1OC13C1(C)CCC4=C(COC4=O)C1CC1OC13C2OC(=O)CCCOC1OC(CO)C(O)C(O)C1O (centres unmarked)	SNU-387	cell growth or viability, XTT	47 h		IC50	24.4 µM
CC(C)CC(O)(CC(C)C)c1cn(C(=O)N2CCCC2)nn1	mouse T-cells	SILAC proteomics, measured: Ndrg1	1 nM, 6 h, single peptides, unit not given	relative to: DMSO	protein level	0.97 and 0.99
CSCC[C@H](NC(=O)[C@@H](NC(=O)[C@H](CCC(N)=O)NC(=O)[C@H](CO)NC(=O)[C@@H](N)C(C)C)[C@@H](C)O)C(=O)N[C@@H](CCCNC(=N)N)C(=O)N[C@@H](CCC(N)=O)C(=O)N[C@H](C(=O)N[C@@H](C)C(=O)N[C@H](C(=O)N1CCC[C@H]1C(=O)N[C@@H](CC(C)C)C(=O)N[C@@H](CC(C)C)C(=O)N[C@@H](Cc1c[nH]c2ccccc12)C(=O)N[C@@H](Cc1ccccc1)C(=O)N[C@@H](Cc1c[nH]c2ccccc12)C(=O)N[C@H](C(=O)NCC(=O)N[C@@H](CO)C(=O)N[C@@H](CC(C)C)C(=O)NCCOCCOCCOCCOCCOCCOCCOCCOCCOCCOCCOCCOCCC(=O)N[C@@H](CS)C(N)=O)[C@@H](C)O)C(C)C)[C@@H](C)O	Calu-3	phage binding		relative to: targeting over control phage	selectivity ratio	1.2 ± 0.58
N[C@H](C(=O)N1CCCC1)C1CCN(c2nccc3c(-c4ncc(Cl)cc4Cl)cccc23)CC1	human neutrophils	protein citrullination, inhibitor, flow cytometry, measured: citrullinated proteins	316 nM, with: ionomycin		inhibition	20.1% and 31% and 20.2% and 34.3%
CC(=O)NCSC[C@H](NC(=O)[C@@H]1CCCN1C(=O)[C@H](C)NC(=O)[C@@H](NC(=O)CNC(=O)[C@@H](NC(=O)[C@H](Cc1c[nH]c2ccccc12)NC(=O)[C@H](C)NC(=O)CNC(=O)[C@H](CO)NC(=O)[C@H](C)NC(=O)[C@@H]1CCCN1C(=O)[C@H](Cc1c[nH]c2ccccc12)NC(=O)[C@H](C)NC(=O)[C@H](C)NC(=O)[C@@H](N)Cc1ccc(O)cc1)[C@@H](C)O)[C@@H](C)O)C(=O)N[C@@H](CO)C(=O)N[C@@H](C)C(=O)NCC(=O)N[C@H](C(=O)NCCOCCOCCOCCOCCOCCOCCOCCOCCOCCOCCOCCOCCC(=O)N[C@@H](CS)C(N)=O)[C@@H](C)O	HCC95	phage binding		relative to: targeting over control phage	selectivity ratio	1.2 ± 0.66
CC1CCC2C(C)C(OC(=O)CCC(=O)N3CCC(Nc4ccc(S(=O)(=O)NC(=O)c5ccc(N6CCN(CC7=C(c8ccc(Cl)cc8)CC(C)(C)CC7)CC6)cc5Oc5cnc6[nH]ccc6c5)cc4[N+](=O)[O-])CC3)OC3OC4(C)CCC1C32OO4 (centres unmarked)	THP-1	annexin V/PI flow cytometry, measured: annexin V+/PI-	0.8 µM, 24 h		early apoptotic cells	54%
NC(=S)N/N=C/c1ccc(OCc2ccccc2)cc1	IMR-32		300 µg/mL, 24 h	higher = more activity	catalase activity (OD450)	0.05 a.u.
COc1ccccc1-c1ccncc1C(=O)Nc1nnc(OCc2ccc(Cl)cc2)s1	DLD-1 BRCA2-/-		0.125 µM, single replicate	relative to: untreated	colony survival	76.8% and 55.6% and 79.3%
O=C(C[Se]C(=O)c1cccs1)Nc1cccc(C(F)(F)F)c1	NCI60 leukaemia subpanel	NCI60 five-dose screen			mean TGI	4.49 µM
O=C(O)c1ccc(-c2nc(-c3ccccc3Cl)c3sccn23)cc1	HEL	flow cytometry	0.1 mM		CD71-positive cells	84.8%
CC(CO)C1CN2C(=O)[C@H](CC(=O)O)NC(=O)CC(CC3CC3)NC(=O)[C@H](CCC(=O)O)NC(=O)CNC(=O)[C@H]([C@@H](C)O)NC(=O)[C@H](CCC(=O)O)NC(=O)[C@@H]2C1(F)F (some centres unmarked)	RAW264.7	ELISA	concentration not given, with: LPS		TNF-alpha protein level	inhibited
O=C(C[Se]C(=O)c1ccco1)Nc1cccc(C(F)(F)F)c1	NCI60 leukaemia subpanel	NCI60 five-dose screen			CC50	100 µM
Cc1cc(Oc2nc(N3CC[C@@H](c4ccncc4)C3)ncc2F)[nH]n1	JAR	cell proliferation			IC50	33.1 µM
CC(=O)Oc1ccccc1C(=O)[Se]CC(=O)Nc1cccc(C(F)(F)F)c1	NCI60 melanoma subpanel	cytotoxicity, inhibitor	five-dose		CC50	17.9 µM
CC(C)C[C@@H](/C=C/[C@H](Cc1ccccc1)C(=O)N1CCC[C@H]1C(=O)N[C@H](C(=O)NC1CC(C)(C)N([O])C(C)(C)C1)C(C)C)NC(=O)OC(C)(C)C	BJeLR	protection from ferroptosis, PrestoBlue	24 h, with: erastin 10 µM		EC50	0.376 µM

Some of these lines once more:
Compound	cell line	assay	setting	scale	measurement	value
CC(C)CC(O)(CC(C)C)c1cn(C(=O)N2CCCC2)nn1	mouse T-cells	SILAC proteomics, measured: Ndrg1	1 nM, 6 h, single peptides, unit not given	relative to: DMSO	protein level	0.97 and 0.99
Cc1cc(Oc2nc(N3CC[C@@H](c4ccncc4)C3)ncc2F)[nH]n1	JAR	cell proliferation			IC50	33.1 µM
